Assay results from different studies.
A part holds a random share of what one study measured.

Block 1
Target: Histone acetyltransferase KAT6A, both winged helices, GST fusion (KAT6A, Homo sapiens, UniProt Q92794, residues 1-181)
Method: protein binding microarray
Molecule type: double-stranded DNA, one strand shown
Medium: in vitro
Concentration: not given
Setting: 8-mer, flanks averaged, mean of 2 arrays, mostly near background
Relative to: not given
Reading: higher = stronger binding
Target sequence (chain): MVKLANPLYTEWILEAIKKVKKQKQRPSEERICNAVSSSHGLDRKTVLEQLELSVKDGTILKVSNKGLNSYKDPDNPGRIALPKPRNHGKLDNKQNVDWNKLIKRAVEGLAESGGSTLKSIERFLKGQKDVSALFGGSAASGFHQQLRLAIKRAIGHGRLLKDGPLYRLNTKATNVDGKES
The E-score of `TCTGATAA` is reported as -0.0361.
`GCCTATCC` has an E-score of -0.0587.
`CCATGGCG` has an E-score of 0.155.
For `CCCGCGCG`, the E-score was 0.406.
For `AGCCTCAG`, the E-score was -0.0805.
The E-score of `CTGCTTCC` is reported as -0.0407.

Block 2
Target: Sal-like protein 4, full length isoform A (SALL4, Homo sapiens, UniProt Q9UJQ4, residues 1-1053)
UniProt Q9UJQ4, sequence (whole entry, looked up): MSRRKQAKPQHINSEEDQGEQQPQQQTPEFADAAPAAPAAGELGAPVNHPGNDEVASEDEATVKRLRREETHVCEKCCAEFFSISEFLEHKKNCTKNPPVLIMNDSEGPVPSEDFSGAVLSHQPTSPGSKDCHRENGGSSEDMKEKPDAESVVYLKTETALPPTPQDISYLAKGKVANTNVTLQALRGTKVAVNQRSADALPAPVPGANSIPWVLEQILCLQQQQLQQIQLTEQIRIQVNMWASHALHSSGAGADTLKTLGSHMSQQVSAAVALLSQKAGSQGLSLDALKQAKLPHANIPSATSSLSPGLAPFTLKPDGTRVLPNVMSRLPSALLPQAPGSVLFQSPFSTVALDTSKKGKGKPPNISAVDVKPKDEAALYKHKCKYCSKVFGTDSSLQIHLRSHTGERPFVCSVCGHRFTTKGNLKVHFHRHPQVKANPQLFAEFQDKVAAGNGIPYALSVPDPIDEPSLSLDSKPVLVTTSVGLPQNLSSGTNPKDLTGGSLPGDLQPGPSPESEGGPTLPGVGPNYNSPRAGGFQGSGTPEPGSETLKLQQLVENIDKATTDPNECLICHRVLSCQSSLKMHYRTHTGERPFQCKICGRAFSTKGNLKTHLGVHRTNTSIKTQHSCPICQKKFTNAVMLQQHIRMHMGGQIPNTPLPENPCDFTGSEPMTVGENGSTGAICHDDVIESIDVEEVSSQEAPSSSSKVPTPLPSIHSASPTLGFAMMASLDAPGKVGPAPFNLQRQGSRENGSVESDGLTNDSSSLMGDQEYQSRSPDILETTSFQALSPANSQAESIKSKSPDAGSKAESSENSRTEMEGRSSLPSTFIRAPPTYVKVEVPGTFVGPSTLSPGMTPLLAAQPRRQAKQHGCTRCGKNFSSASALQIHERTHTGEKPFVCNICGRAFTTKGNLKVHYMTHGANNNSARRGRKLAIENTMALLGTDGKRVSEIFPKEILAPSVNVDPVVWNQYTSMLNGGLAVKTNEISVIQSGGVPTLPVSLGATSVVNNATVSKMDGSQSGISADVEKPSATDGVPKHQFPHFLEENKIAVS
Method: universal PBM
Molecule type: double-stranded DNA, one strand shown
Medium: in vitro
Concentration: 600 nM
Setting: 8-mer, flanks averaged, mean of replicates
Reading: higher = stronger binding
With `CATTTTAG` the E-score was 0.229.
`CCAAAAGC` has an E-score of -0.152.
`GTCCAGAA` gave an E-score of -0.00524.
`ACAGTCCC` gave an E-score of -0.239.
With `CTTGTCCC` the E-score was -0.123.

Block 3
Target: Interferon regulatory factor 3, full length, phosphomimetic (IRF3, Homo sapiens, UniProt Q14653, residues 1-427, S386D/S396D/S398D/S402D/T404D/S405D)
Method: protein-binding microarray
Molecule type: double-stranded DNA, one strand shown
Medium: in vitro
Concentration: 2540 nM top
Setting: 60-bp whole probe
Together with: salmon DNA 0.4 mg/ml
Relative to: random background probes
Reading: higher = stronger binding
All sequences stand within: GCCTAGCAC … GTCTTGATTCGCTTGACGCTGCTG
Target sequence (chain): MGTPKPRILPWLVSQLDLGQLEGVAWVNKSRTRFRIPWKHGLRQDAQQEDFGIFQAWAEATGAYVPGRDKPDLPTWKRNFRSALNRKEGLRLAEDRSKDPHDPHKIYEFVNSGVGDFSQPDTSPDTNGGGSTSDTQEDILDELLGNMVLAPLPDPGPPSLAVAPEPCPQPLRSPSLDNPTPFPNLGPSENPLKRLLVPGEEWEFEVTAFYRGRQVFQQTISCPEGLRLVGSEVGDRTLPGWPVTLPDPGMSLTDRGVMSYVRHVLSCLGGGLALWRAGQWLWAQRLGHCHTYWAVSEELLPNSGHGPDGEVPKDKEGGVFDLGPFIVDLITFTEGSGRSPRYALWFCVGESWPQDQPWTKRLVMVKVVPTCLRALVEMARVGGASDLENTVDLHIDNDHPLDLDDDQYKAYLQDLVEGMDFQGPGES
For `TTAGGTTTCGGGATTGGGTTAGTGCTA`, “fitted relative affinity” read 4.41 z-score.
For `GACGGACTGCTGCTGCTGACGTGCTAG`, “fitted relative affinity” read -0.961 z-score.
Under “fitted relative affinity”, `GACGGACTGGAAACTGGGGACGTGCTA` is recorded as 0.291 z-score.
`GACCGTTTCGGTATCGGGACGTGCTAG`: “fitted relative affinity” 7.23 z-score.
`TCACTTCCCAATTGTCTTACTGTGCTA` — result for “fitted relative affinity”: 2.66 z-score.
Under “fitted relative affinity”, `GGCGGACTGGGGTATCGGGACGTGCTA` is recorded as -0.777 z-score.
Under “fitted relative affinity”, `TTAGATATCAGTCTCGATCAGTGCTAG` is recorded as 1.15 z-score.
`GGCGGTCTCCTACTGCTGACGTGCTAG` — result for “fitted relative affinity”: 1.02 z-score.
Under “fitted relative affinity”, `TTAGATATCAGTTTCTATTAGTGCTAG` is recorded as 3.41 z-score.

Other studies, line by line
For `PhoQ, residues 284 288 289 292 302 303 MLMVEA`, the fold induction was 11.4 (PhoP, residues 12 14 15 18 19 TQALL (Escherichia coli, UniProt P23836); Sort-seq, item: YFP reporter; E. coli; PhoQ-PhoP variant library, together with: 10 µM Mg2+; relative to: high Mg2+ state, higher = stronger signaling).

Excerpt of the above (block 1):
The E-score of `TCTGATAA` is reported as -0.0361.
